Measured values pooled from the literature.
Each line is one published result; not all experiments were run side by side. Several values in a cell are separate wells, animals, samples, runs or records. ± gives the spread as reported.
IKBKG 2-419 C11A/C76A/C95A/C131A/C167A: IKBKG 2-419 C11A/C76A/C95A/C131A/C167A (Homo sapiens, UniProt Q9Y6K9)
B1: Scn2a 989-1133 (UniProt P04775); CK2-phosphorylated; sequence looked up; chain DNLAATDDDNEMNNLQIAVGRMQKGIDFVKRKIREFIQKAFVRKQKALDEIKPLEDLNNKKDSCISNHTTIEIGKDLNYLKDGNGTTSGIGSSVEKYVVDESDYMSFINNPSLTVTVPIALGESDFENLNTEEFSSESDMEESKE
B2: IGFL1 24-110 (Homo sapiens, UniProt Q6UW32); chain GAPVAPMTPYLMLCQPHKRCGDKFYDPLQHCCYDDAVVPLARTQTCGNCTFRVCFEQCCPWTFMVKLINQNCDSARTSDDRLCRSVS
B3: UGT1A9 (Homo sapiens, UniProt O60656); chain GKLLVVPMDGSHWFTMRSVVEKLILRGHEVVVVMPEVSWQLGRSLNCTVKTYSTSYTLEDLDREFKAFAHAQWKAQVRSIYSLLMGSYNDIFDLFFSNCRSLFKDKKLVEYLKESSFDAVFLDPFDNCGLIVAKYFSLPSVVFARGILCHYLEEGAQCPAPLSYVPRILLGFSDAMTFKERVRNHIMHLEEHLLCHRFFKNALEIASEILQTPVTEYDLYSHTSIWLLRTDFVLDYPKPVMPNMIFIGGINCHQGKPLPMEFEAYINASGEHGIVVFSLGSMVSEIPEKKAMAIADALGKIPQTVLWRYTGTRPSNLANNTILVKWLPQNDLLGHPMTRAFITHAGSHGVYESICNGVPMVMMPLFGDQMDNAKRMETKGAGVTLNVLEMTSEDLENALKAVINDKSYKENIMRLSSLHKDRPVEPLDLAVFWVEFVMRHKGAPHLRPAAHDLTWYQYHSLDVIGFLLAVVLTVAFITFKCCAYGYRKCLGKKGRVKKAHKSKTH
B4: CPT1A 381-469 W391A (Rattus norvegicus, UniProt P32198); Cy3 label; sequence looked up; chain AALTAADRVPAAKCRQTYFARGKNKQSLDAVEKAAFFVTLDESEQGYREEDPEASIDSYAKSLLHGRCFDRWFDKSITFVVFKNSKIGI

FGF14 fragment, N-terminal adamantanecarbonyl, Glu tert-butyl ester, C-terminal ethyl ester (Homo sapiens)
Kd (SCN8A 1767-1912 (Homo sapiens, UniProt Q9UQD0-1); SPR): 67300 ± 7300 nM

MGDSILSQAEIDALLN (fliM residues 1-16 (Escherichia coli))
Kd (cheY 2-129 E89R (Escherichia coli, UniProt P0AE67); fluorescence titration; peptide; pH 7.0, one-site model): 180000 nM

PAKKSEELVAEAHNLSTLLENAIQDTVREQDQSATALDWSWLQTE (IKBKB 701-745 C716S/F734A (Homo sapiens, UniProt O14920); sequence looked up)
Kd (IKBKG 2-419 C11A/C76A/C95A/C131A/C167A; competition with labelled peptide, fluorescence polarisation; pH 7.4): 180 nM

tocilizumab IgG1
Kd (FCGRT (Homo sapiens, UniProt P55899); BLI, SPR): 24.6 nM and 23 nM and 25.3 nM and 26.1 nM

B1 (Scn2a 989-1133)
Kd (ANK2 1-957 (Homo sapiens, UniProt Q01484-2); SPR; pH 7.4, 25 °C, NaCl 150 mM): 0.5 nM

B2 (IGFL1 24-110)
Kd (IGFLR1 23-159 (Homo sapiens, UniProt Q9H665); SPR; pH 7.4, 25 °C, NaCl 0.15 M): 1.2 nM

secA (Escherichia coli, UniProt P10408)
Kd (phoA signal peptide residues 1-40 C insertion at 2, C-terminal amide, IANBD on Cys2 (Escherichia coli); fluorescence polarisation): 6200 ± 800 nM

B3 (UGT1A9)
Km (O=c1cc(-c2ccccc2)oc2cc(O)cc(O)c12; steady-state kinetics; pH 7.4, 37 °C): 0.25 µM

PAKKSEELAAEAHNLSTLLENAIQDTVREQDQSFTALDWSWLQTE (IKBKB 701-745 C716S/V709A (Homo sapiens, UniProt O14920); sequence looked up)
Kd (IKBKG 2-419 C11A/C76A/C95A/C131A/C167A; competition with labelled peptide, fluorescence polarisation; pH 7.4): 280 nM

B4 (CPT1A 381-469 W391A)
Kd (Fabp1, Cy5 label (Mus musculus, UniProt P12710); FRET; 24 °C): 3 nM

A few entries again:
tocilizumab IgG1
Kd (FCGRT (Homo sapiens, UniProt P55899); BLI, SPR): 24.6 nM and 23 nM and 25.3 nM and 26.1 nM
